Experimental data gathered from unrelated publications.
Lines come from different studies, so protocols differ. Several values in a cell are separate wells, animals, samples, runs or records. ± gives the spread as reported.

CC(=Nc1ccc(N=Cc2cnccn2)cc1)N(C)C: “worm burden reduction” 75.8% and > 70% (Necator americanus; infected hamsters; oral, 12.5 mg/kg single dose, 49 days post infection).
The inhibition of O=C(Nc1cccc(C2=NCCN2)c1)Nc1cccc(C2=NCCN2)c1 is reported as 96.2% (Theileria equi; parasite growth, flow cytometry; horse erythrocytes, USDA Florida strain; 0.002688 µM, 72 h).
The clinical score of Nc1nc(-c2ccccc2)nc2[nH]nc(Nc3ccc(C(F)(F)F)cc3)c12 is reported as 0.2 (coxsackievirus B3; 31-1-93, NMRI mice, CVB3 chronic myocarditis; oral, 100 mg/kg twice daily, day 28, dosed days 3 to 10, score scale 0 to 7; direction not given).
CCc1nn(C)c2nc(-c3ccc(C(=O)O)cc3)nc(NCc3ccc(F)cc3)c12 gave a parasite number of 22.7% and 20.8% and 21.1% and 23.1% (Cryptosporidium parvum; HCT-8; 6 x EC90, 48 h; reference: DMSO control).
Cc1cc(=O)c(-c2ccc(OCCSc3ccc(C(F)(F)F)cn3)cc2)c(C)[nH]1 gave an IC50 of 0.454 ± 0.355 µM (Plasmodium yoelii; 17XL; 384-well).
The FICI of N=C(N)c1ccc(OCc2cc(COc3ccc(C(=N)N)cc3)cc(-c3ccccc3)c2)cc1 is reported as 0.078 (Escherichia coli; checkerboard; 552100 clinical isolate; unit not given, with: rifampicin; lower = stronger synergy).
For CCOc1ccc2cc(-c3nn(CC4CCN(C)CC4)c4ncnc(N)c34)ccc2n1, “% of maximum PPE” read 90.6% (Theileria equi; hydroethidine flow cytometry; USDA Florida; 3 µM, 72 h).
The plaque reduction of CC(C)n1ncc2c(C(=O)NCC3(C)CNC3)cc(C3CC3)nc21 is reported as 100% (enterovirus D68; recombinant US/MO/14-18947 wild type; 15000 nM).
The IC50 of Cc1[nH]c(C)c(-c2ccc(OCc3ccc(F)cc3)cc2)c(=O)c1Br is reported as 0.181 ± 0.07 µM (Plasmodium yoelii; 17XL; 384-well).
The parasitaemia reduction of Cc1[nH]c(/C=C2\N=C(c3ccc[nH]3)C=C2OCc2ccccc2)cc1Cc1ccc(OC(F)(F)F)cc1 is reported as 97.6% (Plasmodium yoelii; CF1 mice; oral, 10 mg/kg daily for 4 days, day 5; reference: vehicle).
For Cc1cc(Nc2ccc(S(F)(F)(F)(F)F)cc2)n2nc(C(C)(F)F)nc2n1, “lag phase (Tlag)” read 16 h (Plasmodium falciparum; microscopy; human malaria patients; 250 mg, median).
The viability of CC(=O)Nc1ccc(NC(=S)NC(=O)c2ccc(C(C)(C)C)cc2)cc1 is reported as 119% (HBL-1; 0.1 µM, 120 h).
For O=C(Nc1ccccc1O)c1ccc(S(=O)(=O)c2ccc(Cl)cc2)cc1, the IC50 was 8.19 ± 1.26 µM (Plasmodium yoelii; 17XL; 384-well).
The viability of Cc1ccc(NC(=O)CCCCCC(=O)Nc2ccccc2N)cc1 is reported as 119% (HBL-1; 0.5 µM, 120 h).
CCCCN1CC[C@@H](CCC(O)c2cc(OCCC)nc3ccc(OC)cc23)[C@@H](CC)C1 (some centres unmarked) gave an IC50 of > 20 µM (Plasmodium yoelii; 17XL; 384-well).
Under “% of maximum PPE”, CCOc1ccc2cc(-c3nn(CC4CCNCC4)c4ncnc(N)c34)ccc2c1 is recorded as 8.71% (Theileria equi; hydroethidine flow cytometry; USDA Florida; 12 µM, 72 h).
The IC50 of CCCCCCCCCc1c(C)[nH]c2ccccc2c1=O is reported as 0.354 ± 0.018 µM (Plasmodium yoelii; 17XL; 384-well).
For Oc1c(I)cc(Cl)c2cccnc12, the IC50 was 6.7 µM (Trichomonas gallinae; CCK-8; trophozoites; 24 h).
CCOc1ccc2cc(-c3nn(CC4CCN(C)CC4)c4ncnc(N)c34)ccc2c1: “% of maximum PPE” 73.3% (Theileria equi; hydroethidine flow cytometry; USDA Florida; 3 µM, 72 h).
O=C(Nc1ccc(OC2CCN(Cc3ccc(F)cc3)C2)c(Cl)c1)c1cccs1 (centres unmarked) gave an IC50 of 2.18 ± 1.61 µM (Plasmodium yoelii; 17XL; 384-well).

Some of these lines once more:
The viability of Cc1ccc(NC(=O)CCCCCC(=O)Nc2ccccc2N)cc1 is reported as 119% (HBL-1; 0.5 µM, 120 h).
